Published values of several laboratories.
Each numbered part is a random draw from the data of one study; scales do not carry over between parts.

Series 1 — method: RNA Bind-n-Seq; molecule type: RNA; medium: in vitro; tested at: 200 nM; setting: whole 134-nt RNA, ends assumed; with: 150 mM LiCl; relative to: input library; reading: higher = stronger binding; library: 7-deaza-guanosine replaces G
Target: Fragile X messenger ribonucleoprotein 1, C-terminal low-complexity region (Fmr1, Mus musculus, UniProt P35922)
The log2 enrichment of `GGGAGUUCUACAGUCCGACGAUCAGUCCUGUGCUACACAUCGUAUGUACCGAAUCGGGGAAAGGGGAAAAAGGGGAGGGGAAAGUAUUAUGUUACGCCGUUCGGAUCUGCACUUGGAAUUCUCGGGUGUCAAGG` is reported as 0.0976.
For `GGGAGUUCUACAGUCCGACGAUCCCUGUGCUACACAUCGUAUGUACCGAAUCGGGGCCCCCCGGGCCCCCCGGGCCCCCCGGGAAAGUAUUAUGUUACGCCGUUCGGAUCUGCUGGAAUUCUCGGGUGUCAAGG`, the log2 enrichment was -2.07.
The log2 enrichment of `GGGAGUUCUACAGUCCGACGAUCAAGUCCUGUGCUACACAUCGUAUGUACCGAAUCGGGUUUUUUUGGGUGGGUUUGGGAAAGUAUUAUGUUACGCCGUUCGGAUCUGCACUUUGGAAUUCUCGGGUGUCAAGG` is reported as -1.79.
`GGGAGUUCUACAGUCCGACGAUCGAGCAAAGAGCCAUUCAGCUUCAGUCUUUACAUACCAUGAAUAAAACAUUAAAACAUCAUAUGGAGAAGUUUACAUGGUGAUUGUUCACCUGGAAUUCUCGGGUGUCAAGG` gave a log2 enrichment of 0.372.
For `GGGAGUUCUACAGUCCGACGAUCAAGUCCUGUGCUACACAUCGUAUGUACCGAAUCGGGGUUUUUGGGGUGGGGUGGGGAAAGUAUUAUGUUACGCCGUUCGGAUCUGCACUUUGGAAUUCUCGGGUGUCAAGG`, the log2 enrichment was -1.1.
`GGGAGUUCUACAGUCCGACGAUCUCCUCAAGUCCUGUGCUACACAUCGUAUGUACCGAAUCGGGUGGUGGGUGGAAAGUAUUAUGUUACGCCGUUCGGAUCUGCACUUCCAGCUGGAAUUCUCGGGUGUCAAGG` has a log2 enrichment of 0.176.
For `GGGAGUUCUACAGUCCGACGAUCGCAGGAAGUAAAAACAAAUGGAAAUGCUUCGGAUAGUGGCAGGGGUGGGGGUUGCUAAGGAAAGGGUGGGAUGGAAGUGGGUAAAGAGUUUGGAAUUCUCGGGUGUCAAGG`, the log2 enrichment was 1.37.
The log2 enrichment of `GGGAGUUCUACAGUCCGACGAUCCACAGACAACACGGACCCACACAGACACAGAGGGAAGGGGUUGGGAUGGGGACAGGGUGCACAGCAGGGCGGGGUAGGACCCCAGCCCCUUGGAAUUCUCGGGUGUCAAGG` is reported as -0.838.

Series 2 — method: protein binding microarray; molecule type: double-stranded DNA, one strand shown; medium: in vitro; tested at: not given; relative to: not given; reading: higher = stronger binding
Target: Histone acetyltransferase KAT6A, winged helix 1, GST fusion (KAT6A, Homo sapiens, UniProt Q92794, residues 1-85)
Setting: 8-mer, flanks averaged, mean of 2 arrays, mostly near background
Residues (chain): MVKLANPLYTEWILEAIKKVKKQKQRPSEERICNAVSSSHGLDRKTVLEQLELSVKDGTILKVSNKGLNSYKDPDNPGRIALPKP
`CAAACCCG` gave an E-score of 0.268.
`ACGTACTA` has an E-score of -0.153.
The E-score of `GGCGTGAA` is reported as 0.0968.
`AAGCTATA` gave an E-score of -0.0643.
The E-score of `ACGGACTC` is reported as 0.253.
For `ATGTGCGC`, the E-score was 0.24.
For `TATGCAGA`, the E-score was -0.276.
For `TCCAAAAA`, the E-score was -0.185.
With `GTGCCGCA` the E-score was 0.247.

Series 3 — method: protein-binding microarray; molecule type: double-stranded DNA, one strand shown; medium: in vitro; tested at: 250 nM; setting: 60-bp whole probe; with: salmon DNA 0.4 mg/ml; relative to: random background probes; reading: higher = stronger binding; constant ends, left off below: GCCTAGCAC … GTCTTGATTCGCTTGACGCTGCTG
Target: Interferon regulatory factor 5, full length, phosphomimetic (IRF5, Homo sapiens, UniProt Q13568-2, residues 1-514, K96S/S451D/S453D/S456D/S462D)
With `TTACAGCTATTTTTAGGATGGTGCTAG` the log fluorescence was 0.419 z-score.
`GACGCTCTCAGTATCGAGACGTGCTAG` has a log fluorescence of 1.51 z-score.
With `GACGGACTGAGTATCGGGACGTGCTAG` the log fluorescence was 1.18 z-score.
With `GACGAGTTCAGACTGGAGACGTGCTAG` the log fluorescence was -0.378 z-score.
The log fluorescence of `TTAGGTCTCCTTCCCCTTTAGTGCTAG` is reported as -0.203 z-score.
`TCAGATATAGGATAACGAGCCGTGCTA` has a log fluorescence of 0.119 z-score.
With `TTAGGCTTCGACACTGGGTTAGTGCTA` the log fluorescence was -0.207 z-score.
The log fluorescence of `TCACCTTTGCCTCTGAGACTGTGCTAG` is reported as -0.208 z-score.
`TTAGGTTTGGGTTTCGGTTAGTGCTAG` has a log fluorescence of 8.37 z-score.
`TTAGATTTCAGTCTCAATTAGTGCTAG` has a log fluorescence of 2.08 z-score.
`TCATAAATCTTTTTCCCACTGTGCTAG` has a log fluorescence of 0.814 z-score.
With `GACGATCTCAGATTCGAGACGTGCTAG` the log fluorescence was -0.123 z-score.
`TTAGGACTGCTACTGCTTGAGTGCTAG` has a log fluorescence of -0.454 z-score.

Single results of other studies
`PhoQ, residues 284 288 289 292 302 303 SSTLSG` gave a fold induction of 3.18 (PhoP, residues 12 14 15 18 19 VHSCL (Escherichia coli, UniProt P23836); Sort-seq, item: YFP reporter; E. coli; PhoQ-PhoP variant library, with: 10 µM Mg2+; relative to: high Mg2+ state, higher = stronger signaling).
